Experimental data pooled from the literature.
Values joined by “and” are separate records of one study, mostly repeats; a detail may differ.

Structure (SMILES) | cell line | assay | setting | scale | measurement | result
C=CS(=O)(=O)c1ccc(OC)c(-c2c[nH]c3ncc(-c4cncc(C(=O)N(C)C)c4)cc23)c1 | Ba/F3 BCR-ABL T315I | cell proliferation | 72 h |  | GI50 | > 1000 nM
Cc1ncsc1-c1ccc(C(C)NC(=O)C2CC(O)CN2C(=O)C(NC(=O)CCCCCCCCCCN2CCCC(Nc3ncc(Cl)c(Nc4ccccc4S(=O)(=O)C(C)C)n3)C2)C(C)(C)C)cc1 (stereo not shown) | 22Rv1 | RNA-seq, measured: SLC16A6 mRNA | concentration not given | relative to: DMSO | log2 fold change | -1.22
CNS(=O)(=O)Nc1nccc(Cc2c(C)c3ccc(Oc4ncccc4F)cc3oc2=O)c1F | SU-DHL-2 | cell viability | 7 days |  | IC50 | > 1000 nM
Cc1sc2c(c1C)C(c1ccc(Cl)cc1)=N[C@@H](CC(=O)NCC(=O)N1CCC3(CCC(C(=O)N4CCN(C(=O)c5cc(Cc6n[nH]c(=O)c7ccccc67)ccc5F)CC4)CC3)CC1)c1nnc(C)n1-2 | NCI-H82 |  | 1000 nM, 24 h |  | cells in G2 phase | 6%
CC(C)(O)c1ccn2c(-c3ccc(F)c(-c4ccc(F)cc4C#N)c3)cnc2c1F | HEK-293T stably expressing GABAA receptors | Western blot, measured: BiP, calnexin, LMAN1 | 5 µM, 24 h, chaperones, added: hispidulin 10 µM |  | protein level | no effect
Cc1cc(NC2CCN(C)CC2)ccc1-c1cc2c(N3CCC[C@H](C(=O)N[C@@H](C)c4ccccc4)C3)ncnc2[nH]1 | NCI-H2228 | cell growth or viability, MTT | 0.04 µg/mL, 72 h |  | inhibition | 20.1%
CN1CCCNC(=O)c2cccc(c2)C(=O)NCCCN(C)CCCNc2cccc3c2C(=O)c2cccc(c2C3=O)NCCC1 | SAS | RNA-Seq, measured: CDCA7 mRNA | 1 µM, 6 h | relative to: untreated cells | log2 fold change | -1.07
Cn1cc(-c2cc3c(N4CCC[C@H](C(=O)NCc5ccc(OC(F)(F)F)cc5)C4)ncnc3[nH]2)cn1 | NCI-H2228 | cell growth or viability, MTT | 0.008 µg/mL, 72 h |  | inhibition | 29.3%
O=C(C[Se]C(=O)c1cccnc1Nc1cccc(C(F)(F)F)c1)Nc1cccc(C(F)(F)F)c1 | NCI60 NSCLC subpanel | NCI60 five-dose screen |  |  | GI50 | 1740 nM
COc1cc(OC)c(F)c(/C=C/c2cnc3ccn(S(=O)(=O)c4cn(CCF)cn4)c3n2)c1F | SNU-16 (FGFR2-amplified) | cell proliferation | 1000.0 nM |  | inhibition | 69% and 69.4%
Cc1noc(C)c1-c1cc2c(N3CCC[C@H](C(=O)NCc4ccc(OC(F)(F)F)cc4)C3)ncnc2[nH]1 | NCI-H2228 | cell growth or viability, MTT | 5 µg/mL, 72 h |  | inhibition | 79%
O=C(N1CCCC1)n1cc(-c2ccc(-c3ccccc3)cc2)nn1 | mouse T cells | N-terminal labeling proteomics, measured: S100a4 N-terminal peptide | 0.001 µM, 6 h | relative to: DMSO | SILAC ratio | 1.08 and 1.05 and 0.96 and 1.11 and 0.91
Cc1ccc(/C=N/N=C(\S)Nc2cccc(S(=O)(=O)N(C)C)c2)o1 | LDR | silenced CMV-GFP reporter derepression, qHTS |  |  | efficacy | 72%
CCCCCCCC(=O)Oc1c(C)c(OC)c2c(c1C)OC(=O)[C@@H](CCCCCC)[C@]2(O)/C=C/c1ccccc1 (racemic) | SH-SY5Y | SRB |  | relative to: normal over SH-SY5Y IC50 | selectivity index | 1.72
CC(C)c1ccc(N(C)c2ccc3c(c2)OCC[C@H]3CNc2cnccc2C(=O)O)cc1 | NCI-H1395 | cell growth or viability, ATP luminescence | 7 days |  | IC50 | ≥ 10000 nM
COc1ccccc1-c1ccncc1C(=O)Nc1nnc(OCc2ccc(Cl)cc2)s1 | DLD-1 BRCA2-knockout | immunofluorescence | 10 µM, 96 h, >5 foci per nucleus |  | γH2AX foci-positive nuclei | 58.4% and 57.3% and 58.1%
Cn1ncc2cc(-c3cncc(Cl)c3N3CCC4(CCNC4=O)CC3)ccc21 | LS174T | gene expression, microarray, measured: CYP27B1 mRNA | concentration not given, 24 h | relative to: untreated cells | log2 fold change | -2.22
COc1ccc2c(c1)c(CC(=O)[Se]CC(=O)Nc1cccc(C(F)(F)F)c1)c(C)n2C(=O)c1ccc(Cl)cc1 | NCI60 renal subpanel | cell growth, inhibitor | five-dose |  | GI50 | 1970 nM
COc1cc(-c2cc3c(N4CCC[C@H](C(=O)NCc5ccc(OC(F)(F)F)cc5)C4)ncnc3[nH]2)cc(OC)c1OC | NCI-H2228 | cell growth or viability, MTT | 5 µg/mL, 72 h |  | inhibition | 84.9%

A few entries again:
Structure (SMILES) | cell line | assay | setting | scale | measurement | result
CN1CCCNC(=O)c2cccc(c2)C(=O)NCCCN(C)CCCNc2cccc3c2C(=O)c2cccc(c2C3=O)NCCC1 | SAS | RNA-Seq, measured: CDCA7 mRNA | 1 µM, 6 h | relative to: untreated cells | log2 fold change | -1.07
Cn1cc(-c2cc3c(N4CCC[C@H](C(=O)NCc5ccc(OC(F)(F)F)cc5)C4)ncnc3[nH]2)cn1 | NCI-H2228 | cell growth or viability, MTT | 0.008 µg/mL, 72 h |  | inhibition | 29.3%
CCCCCCCC(=O)Oc1c(C)c(OC)c2c(c1C)OC(=O)[C@@H](CCCCCC)[C@]2(O)/C=C/c1ccccc1 (racemic) | SH-SY5Y | SRB |  | relative to: normal over SH-SY5Y IC50 | selectivity index | 1.72
